Results pooled from the literature.
Each numbered part is a random draw from the data of one study; scales do not carry over between parts.

Block 1
Target: Ras GTPase-activating protein-binding protein 1, RRM domain (G3BP1, Homo sapiens, UniProt Q13283)
UniProt Q13283, sequence (whole entry, looked up): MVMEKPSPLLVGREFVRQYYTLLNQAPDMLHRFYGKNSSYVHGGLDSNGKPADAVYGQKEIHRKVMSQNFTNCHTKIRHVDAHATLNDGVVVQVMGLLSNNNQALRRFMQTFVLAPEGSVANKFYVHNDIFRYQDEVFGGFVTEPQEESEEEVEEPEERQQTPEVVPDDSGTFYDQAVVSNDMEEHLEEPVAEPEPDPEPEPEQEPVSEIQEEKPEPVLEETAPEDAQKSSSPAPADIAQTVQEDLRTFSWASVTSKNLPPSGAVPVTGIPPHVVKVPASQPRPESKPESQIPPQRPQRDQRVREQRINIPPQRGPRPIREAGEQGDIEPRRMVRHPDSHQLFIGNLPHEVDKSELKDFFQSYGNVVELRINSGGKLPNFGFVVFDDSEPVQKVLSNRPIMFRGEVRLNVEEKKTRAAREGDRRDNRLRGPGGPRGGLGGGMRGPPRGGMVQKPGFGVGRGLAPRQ
Method: RNA Bind-n-Seq
Form: RNA
Sample: in vitro
Concentration: 1 µM
Setting: whole 134-nt RNA, ends assumed
Together with: 150 mM KCl
Relative to: input library
Reading: higher = stronger binding
Endpoint: log2 enrichment
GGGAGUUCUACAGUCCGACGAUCACCAUGCAGGUGGGCAUCUUUGGGAAGUGGGGCAAGGGGGGGAUAGGGAGGGGGGUAACACUUUGGGAACAGGUGGUCCCAGGUCAAAUCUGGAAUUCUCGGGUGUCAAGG: -0.412
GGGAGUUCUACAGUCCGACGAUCCUGUGCUACACAUCGUAUGUACCGAAUCGGGUUUUUUUGGGAAAAAAAGGGAAAAAAAGGGAAAGUAUUAUGUUACGCCGUUCGGAUCUGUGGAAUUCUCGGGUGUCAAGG: -0.361
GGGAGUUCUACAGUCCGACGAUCUGGGGAGACUACGAUGACAGCGCCUUCAUGGAGCCCAGGUACCACGUCCGUGGAGAAGAUCUGGACAAGCUCCACAGAGCUGCCUGGUGGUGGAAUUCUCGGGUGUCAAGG: -0.509
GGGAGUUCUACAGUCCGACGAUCCUGUGCUACACAUCGUAUGUACCGAAUCGGGUUUUUUUGGGAAAAAAAGGGUUUUUUUGGGAAAGUAUUAUGUUACGCCGUUCGGAUCUGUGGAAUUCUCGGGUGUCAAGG: -0.451
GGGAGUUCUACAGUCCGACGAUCCCUGUGCUACACAUCGUAUGUACCGAAUCGGGUUUUUUGGUUUUUUGGGGUUUUUUGGGGAAAGUAUUAUGUUACGCCGUUCGGAUCUGCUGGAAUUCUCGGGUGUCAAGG: -0.364
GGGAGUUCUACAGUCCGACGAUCACCAUGCAGGUGGGCAUCUUUGGGAAGUGGGGCAAGGGGGGGAUAGGGAGGGGGGUAACACUUUGGGAACAGGUGGUCCCAGGUCGCUUCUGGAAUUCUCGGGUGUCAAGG: 0.355
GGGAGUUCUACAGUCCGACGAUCGCAGGAAGUAAAAACAAAUGGAAAUGCUUCGGAUAGUGGCAGGGGUGGGGGUUGCUAAGGAAAGGGUGGGAUGAGAGUGGGUAAAGAGUUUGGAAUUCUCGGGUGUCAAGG: 0.841
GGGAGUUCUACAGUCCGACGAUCUAACUUUAGAGGAGGAUCUGAUGGAUAUGGCAGUGGACGUGGAUUUGGGGAUGGCGAUAAUGGGUAUGGAGGAGGACCUGGAGGUGGCAAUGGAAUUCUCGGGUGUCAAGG: -0.355
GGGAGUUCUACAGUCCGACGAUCAGUCCUGUGCUACACAUCGUAUGUACCGAAUCGGGAAAAAGGGAAAAAAAGGGUGGGAAAGUAUUAUGUUACGCCGUUCGGAUCUGCACUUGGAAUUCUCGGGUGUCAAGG: 0.707
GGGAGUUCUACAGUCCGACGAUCAGUCCUGUGCUACACAUCGUAUGUACCGAAUCGGGCCCCCGGCCCCCGGCCCCCGGGGAAAGUAUUAUGUUACGCCGUUCGGAUCUGCACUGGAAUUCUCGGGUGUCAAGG: -0.696

Block 2
Target: PABPC1L2, full length, GST fusion (mouse, UniProt A0ABA7IW68)
Method: RNAcompete
Form: RNA
Sample: in vitro
Concentration: 20 nM
Setting: 7-mer, probes averaged, single round
Relative to: mean of 7-mers
Reading: higher = stronger binding
Endpoint: 7-mer Z-score
Residues (chain): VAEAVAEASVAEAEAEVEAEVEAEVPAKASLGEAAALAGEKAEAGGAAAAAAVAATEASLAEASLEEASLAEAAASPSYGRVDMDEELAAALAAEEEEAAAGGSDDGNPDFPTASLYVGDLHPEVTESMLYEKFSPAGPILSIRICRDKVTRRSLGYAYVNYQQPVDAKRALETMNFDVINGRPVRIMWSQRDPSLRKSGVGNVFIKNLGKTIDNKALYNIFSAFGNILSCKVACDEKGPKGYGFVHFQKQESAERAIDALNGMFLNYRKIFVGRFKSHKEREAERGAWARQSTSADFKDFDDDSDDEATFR
GGAAUCA: 0.017
UCUGUCA: -0.286
AUCUAAA: 0.809
UUCGGUG: -0.296
CUGGUGG: -0.161
GUGCUCU: -0.132
CGCGGCG: -0.184
CACGUAA: -0.117
GAGGGCU: 0.189
GAGCCUU: -0.418
CCCAUGC: -0.438
CCUGCAC: -0.209
AUGGGUG: 0.0497
UCCCGGA: -0.19
GACACAC: -0.0736
GGCCGUG: -0.15
GGUGUAU: 0.046
AAACUUC: 0.929
CUCCCUC: -0.412
CGUCGAA: -0.267
GCAAUGC: -0.113
GCCAGCC: -0.403

Block 3
Target: RNA binding protein fox-1 homolog 2, RRM domain, GST-SBP tag (RBFOX2, Homo sapiens, UniProt O43251-10, residues 100-194)
Method: RNA Bind-n-Seq
Form: RNA
Sample: in vitro
Concentration: 365 nM
Setting: natural RNA segment, single round, ends assumed
Relative to: no-protein control
Reading: higher = stronger binding
Endpoint: RBNS enrichment (R)
Residues (chain): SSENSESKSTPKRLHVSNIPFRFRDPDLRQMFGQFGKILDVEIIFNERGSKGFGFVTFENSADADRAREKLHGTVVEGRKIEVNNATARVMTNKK
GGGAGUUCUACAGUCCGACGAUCUUAUCUUUCUGGCUCCUAAUUCCUUUAAAAUUACAUUUGUUGCAGAACCUCCACAAGGCUAAAUAAAAUUACAUUUGUGACCAUCAGAGAACUGAAUAAACCAUUAACUGUGGAAUUCUCGGGUGCCAA: 0.664
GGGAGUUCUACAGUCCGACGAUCGGGGCCACUCCACCCUUAGGGAGCACAUGAAGAAGCUCCCUAAGAAGUUCUGCUCCUUAGCCAUCCUUUCCUGUAAUUUAUGUCUCUCCCUGAGGUGAGGUUCAGGUUUAUGGAAUUCUCGGGUGCCAA: 0.504
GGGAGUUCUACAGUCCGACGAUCAAAACUAGAGAAUUAGCCAUAUUAAGGAUUUUUCUUGACUGCAAAUUACUUCUAAAGAAUCAUCAGUGUAUAGAUUAGAAGUGCUCAUUACCUGCAACUUUUAAAAAAAAUGGAAUUCUCGGGUGCCAA: 0.52
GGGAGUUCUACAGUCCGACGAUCGAAACAGGCCCAGAAGAACCUCAGGAGUAACCCUGGGCAUUCCUCCCCUACCCAUUUUCUCUGGAGGUGUCCAGCCUCUUCCAACCCCCUCCCCAACUCUAGGGGAGAGCUGGAAUUCUCGGGUGCCAA: 0.341
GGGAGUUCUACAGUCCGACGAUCAGCUGUUGCCAGUGUCCUUCUGAGCCUGGAUUCUCCGGGGAUUUCCGUCGUGGUGGAUGGACUUCACAUCAGCAGCAGUUCUGGUACAGAAUUGUAAUGUGUUUUCAUUUUGGAAUUCUCGGGUGCCAA: 0.362
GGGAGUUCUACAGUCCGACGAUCCCUGGUGACCUUUGCUCUCGGCACCGGGCCUGUUUCCUUUGCUUUGAGUGCCUUUUUGAACGCUGCUCCACAGGGCCUGGGUUUUCUUGAGCUCUUCUGUCCAAAGAUGGUGGAAUUCUCGGGUGCCAA: 0.813
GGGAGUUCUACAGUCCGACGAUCAGUGCUGAGAUUACAGGCGUGAGCCUCCGCGCCCGGCCCCCUUGCAGUUCUCUCUGAUUUGGUUUGUUCUGUCUCAGGCUUCUGUGGCAGGACUGGCCCAGGGAGGAGGAUGGAAUUCUCGGGUGCCAA: 0.215
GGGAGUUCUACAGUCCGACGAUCAAAAAAAAUCAAAUGCAGUGACUAUUUUAUAUGGACAUGUGUCUUGAUUAUAUCUAUUAAGUGUGCAUUUAUAGUAUCUCCUAUGGAUCAAUUACAGAGCACAAUGACUGUGGAAUUCUCGGGUGCCAA: 0.335
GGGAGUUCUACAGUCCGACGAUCCUGGAAUGGUGUUUUGUCAGACUUCCAAAUCCUGGAAGGACACAGUGAUGAAUGUACUAUGUCUGAACAUAGAAACUCGGGCUUGAGUGAGAAGAGCUUGCACAGCCAACUGGAAUUCUCGGGUGCCAA: 18.6
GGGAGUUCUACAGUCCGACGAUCUUGUUUCUGUUCUUUUCCAUCCACUUUGUACUCAUUUGUUUUCAUUAAAUUUUGCAUUUAUUUUGAGUUUUUCAUGGUGUCAUUUUUGGGCAGUAGCUUCGCUGCUUCAGUGGAAUUCUCGGGUGCCAA: 0.494
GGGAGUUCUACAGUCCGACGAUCCACCGCUGGGACGGAUUCAGUGCCAGGCUGGGCGCAAGGCCCCUUACCAGUGGGCUGCUGCUCUGUGGCUGAGGGGCCAUCUAUGCAGAGUCUGUCCCUAUUUAUGUAUGUGGAAUUCUCGGGUGCCAA: 0.966
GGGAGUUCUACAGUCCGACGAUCAGAUAUGACCAGACGCAUCCUAAGAUGUUGAUUCUUACUGUGUUGUAUAAAAUAAAGUGUAGUUUACAAAAAAAAGAAACGUAAAAAAAAAAAACUACAUGCAAAACUGUUGGAAUUCUCGGGUGCCAA: 2.06

Block 4
Target: Histone acetyltransferase KAT6A, both winged helices, GST fusion (KAT6A, Homo sapiens, UniProt Q92794, residues 1-181)
Method: protein binding microarray
Form: double-stranded DNA, one strand shown
Sample: in vitro
Concentration: not given
Setting: 8-mer, flanks averaged, mean of 2 arrays, mostly near background
Relative to: not given
Reading: higher = stronger binding
Endpoint: E-score
Construct (chain): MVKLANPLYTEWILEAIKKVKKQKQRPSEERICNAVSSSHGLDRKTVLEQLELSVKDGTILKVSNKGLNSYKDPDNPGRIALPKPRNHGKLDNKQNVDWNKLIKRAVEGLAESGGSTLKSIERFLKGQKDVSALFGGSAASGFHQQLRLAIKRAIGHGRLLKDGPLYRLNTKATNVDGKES
CCAGCAAA: -0.114
AAGGTGTA: -0.0475
CTATCAAC: 0.0613
CTCAAGCA: -0.344
TACGTCGA: -0.152
CCGCCAAG: 0.152
ACGAACTA: -0.206
AACCGTTC: 0.0723
TAACTGGA: -0.204
TTCCGGAA: 0.205
CATTGGCC: -0.0799
CAAGGGCG: 0.152
CCCTAGCC: -0.0904
AAGTTGAT: -0.0583
GTGGAGTA: -0.233
TAGTGCAA: -0.00228
GAACGCGC: 0.344
AAACTCTT: -0.2
AGGTTAAT: -0.181

Repeated from above (block 3):
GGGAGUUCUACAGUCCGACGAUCAAAAAAAAUCAAAUGCAGUGACUAUUUUAUAUGGACAUGUGUCUUGAUUAUAUCUAUUAAGUGUGCAUUUAUAGUAUCUCCUAUGGAUCAAUUACAGAGCACAAUGACUGUGGAAUUCUCGGGUGCCAA: 0.335
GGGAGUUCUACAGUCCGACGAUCCUGGAAUGGUGUUUUGUCAGACUUCCAAAUCCUGGAAGGACACAGUGAUGAAUGUACUAUGUCUGAACAUAGAAACUCGGGCUUGAGUGAGAAGAGCUUGCACAGCCAACUGGAAUUCUCGGGUGCCAA: 18.6
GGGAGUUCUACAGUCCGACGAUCUUGUUUCUGUUCUUUUCCAUCCACUUUGUACUCAUUUGUUUUCAUUAAAUUUUGCAUUUAUUUUGAGUUUUUCAUGGUGUCAUUUUUGGGCAGUAGCUUCGCUGCUUCAGUGGAAUUCUCGGGUGCCAA: 0.494
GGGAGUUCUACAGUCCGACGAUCCACCGCUGGGACGGAUUCAGUGCCAGGCUGGGCGCAAGGCCCCUUACCAGUGGGCUGCUGCUCUGUGGCUGAGGGGCCAUCUAUGCAGAGUCUGUCCCUAUUUAUGUAUGUGGAAUUCUCGGGUGCCAA: 0.966
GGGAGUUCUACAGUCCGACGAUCAGAUAUGACCAGACGCAUCCUAAGAUGUUGAUUCUUACUGUGUUGUAUAAAAUAAAGUGUAGUUUACAAAAAAAAGAAACGUAAAAAAAAAAAACUACAUGCAAAACUGUUGGAAUUCUCGGGUGCCAA: 2.06
